Results pooled from the literature.
Each line is one published result; not all experiments were run side by side. Several values in a cell are separate wells, animals, samples, runs or records. Numbers after ± are the reported error.

Compound	cell line	test	system	conditions	scale	quantity	result
CC(C)C(=O)N1CCN(c2ccc(NC(=O)c3ccc([N+](=O)[O-])o3)cc2Cl)CC1	LDR	silenced CMV-GFP reporter derepression, qHTS				efficacy	45%
CCCS(=O)(=O)Nc1ccc(F)c(C(=O)c2c[nH]c3ncc(-c4ccc(Cl)cc4)cc23)c1F	SK-MEL-239 C4 (p61 BRAF V600E)	ERK phosphorylation, Western blot		1 h		IC75	13.5 µM
[Cl-].[Cl-].[Os+2].c1cnc2c(c1)ccc1cccnc12.c1cnc2c(c1)ccc1cccnc12.c1cnc2c(c1)ccc1cccnc12	SK-MEL-28	sulforhodamine B		normoxia, together with: green light 523 nm		GI50	18.1 µM
C=C1CC[C@@H]2[C@](C)(CCC[C@]2(C)C(=O)O)[C@H]1CC/C(C)=C/CO	neuroblastoma M2 (−)	western blot		IC50	reference: untreated	PCNA level	decreased
O=c1cc(C(Cl)(Cl)Cl)oc2ccc(Cl)cc12	Neuro2a	inhibitor, RT-qPCR		concentration not given, together with: BRP 100 µg/mL		Fos mRNA level	inhibited
COc1cnc2cccc(N3CCc4c(cc(Cn5ccnc5C)cc4-c4cn(C)nc4C(F)(F)F)C3=O)c2c1	Panc 04.03	cell growth		120 h		EC50	0.0483 µM
O=P1(C2CCCCC2)CCCCC1	HaCaT	annexin V/PI flow cytometry		IC50, 72 h		early apoptotic cells	3.2%
CC(=O)N[C@@H](CS)C(=O)O	HeLa	annexin V/PI flow cytometry		concentration not given, 48 h		early apoptotic cells	2.8 ± 0.25%
CCNc1nc(Nc2ccc(F)c(Cl)c2)c2ccccc2n1	Vero	MTT		62.5 µg/mL		cytotoxicity	0.24%
CCCCS(=N)(=O)CCC(N)C(=O)O (stereo not shown)	OVCAR-5	LC-ESI-MS/MS, item: glutathione		100 µM, 12 h		cellular GSH concentration	13.9 ± 0.5 µM
CCCCCCCCCCCCCCCC(NCc1cccc(C)c1)=C1C(=O)OC(CO)C1=O (stereo not shown)	G2-synchronized tsFT210 cells	flow cytometry		50 µM, 4 h, 32 °C, release from G2 arrest		G1 phase cells	51.2%
Cc1cc(Nc2ncc(Cl)c(Nc3ccccc3S(=O)(=O)C(C)C)n2)c(OC(C)C)cc1C1CCNCC1	CLB-GE	phosphoproteomics LC-MS/MS, item: HVCN1 phosphorylation		200 nM, 60 min	reference: untreated	log2 fold change	-2.3
CCCCCCCCCCCCCCC/C(NCc1ccccc1)=C1/C(=O)OC(CO)C1=O (stereo not shown)	G2-synchronized tsFT210 cells	flow cytometry		5 µM, 4 h, 32 °C, release from G2 arrest		G1 phase cells	64.6%
CC(=O)Nc1cccc(-n2c(=O)n(C3CC3)c(=O)c3c(Nc4ccc(I)cc4F)n(C)c(=O)c(C)c32)c1	MeWo (NF1)	cell viability, resazurin		6.25 nM, 72 h	reference: DMSO	average fractional effect	30%
CCCCc1nc(Cl)c(CO)n1Cc1ccc(-c2ccccc2-c2nn[nH]n2)cc1	human PBMC	RNA-seq, item: GPR34 mRNA		10 µg/mL, 24 h	reference: untreated control	log2 fold change	-3.54
CC(C)C[C@H](NC(=O)[C@H](Cc1ccccc1)NC(=O)c1cnccn1)B(O)O	HiBiT-BRD4 LgBiT cells			1 µM, 24 h, no PROTAC		decrease in BRD4 level	~50%
O=C1c2ccncc2C(=O)c2c1[nH]c1ccccc21	PAH hPASMC	mitochondrial fission			reference: A549 over PAH hPASMC	minimum effective concentration ratio	5 fold
COc1cccc2c1C(=O)c1c(O)c3c(c(O)c1C2=O)C[C@@](O)(C(=O)CO)C[C@@H]3O[C@H]1C[C@H](N)[C@H](O)[C@H](C)O1	SW480	MTT		72 h	reference: IC50 HaCaT over IC50 SW480	selectivity index	0.4
COc1ccc2c(N(C)c3ccc(/C(C)=N/OCCN)cc3)c3c(Cl)coc3nc2c1	RWPE-1	trypan blue exclusion		0.5 µM		inhibition of cell proliferation	40%
CC[C@H](C)[C@H](NC(=O)[C@H](CCCCN)NC(=O)[C@@H](NC(=O)[C@H](CCCNC(=N)N)NC(=O)[C@@H](NC(=O)[C@@H](CCCNC(=N)N)NC(=O)[C@@H](CCCNC(=N)N)NC(=O)[C@@H](CCCNC(=N)N)NC(=O)[C@@H](CCCNC(=N)N)NC(=O)[C@@H](CCCNC(=N)N)NC(=O)[C@H](N)CCCNC(=N)N)[C@@H](C)O)[C@@H](C)O)C(=O)N[C@@H](CC(=O)O)C(=O)N[C@@H](Cc1c[nH]c2ccccc12)C(=O)NC(C)(C)C(=O)N[C@@H](CCCCN)C(=O)N[C@H](C(=O)N[C@@H](CC(C)C)C(=O)NC(C)(C)C(=O)N[C@@H](CCCCN)C(=O)NCCCCCC(=O)NCCCC[C@H](NC(=O)CCCCCNC(=O)[C@H](CCCCN)NC(=O)C(C)(C)NC(=O)[C@H](CC(C)C)NC(=O)[C@@H](NC(=O)[C@H](CCCCN)NC(=O)C(C)(C)NC(=O)[C@H](Cc1c[nH]c2ccccc12)NC(=O)[C@H](CC(=O)O)NC(=O)[C@@H](NC(=O)[C@H](CCCCN)NC(=O)[C@@H](NC(=O)[C@H](CCCNC(=N)N)NC(=O)[C@@H](NC(=O)[C@@H](CCCNC(=N)N)NC(=O)[C@@H](CCCNC(=N)N)NC(=O)[C@@H](CCCNC(=N)N)NC(=O)[C@@H](CCCNC(=N)N)NC(=O)[C@@H](CCCNC(=N)N)NC(=O)[C@H](N)CCCNC(=N)N)[C@@H](C)O)[C@@H](C)O)[C@@H](C)CC)[C@@H](C)CC)C(N)=O)[C@@H](C)CC	SK-MEL-5	flow cytometry		10 µM, 6 h		apoptotic cells	57%
CSc1cc(Oc2ccnc3[nH]c(=O)cnc23)ccc1NC(=O)Nc1cc(C(C)(C)C)nn1-c1ccccc1	patient-derived cell line	RPPA, item: phosphorylated IRS-1	human	1 µM, 4 h	reference: DMSO	phospho ratio	0.42
Cc1cc(C)c(/C=C2\SC(N3CCCCC3)=NC2=O)[nH]1	NG108-cl	clomeleon fluorescence, item: intracellular chloride reduction		5 h		EC50	inactive
C=CC1=C(C)c2cc3[n-]c(cc4nc(cc5[n-]c(cc1n2)c(C)c5C=C)C(C)=C4CCC(=O)O)c(CCC(=O)O)c3C.[Zn+2]	SH-SY5Y	RNA-seq, item: ITGA6 mRNA		5 µM, 5 h	reference: untreated cells	fold change	1.88
Cn1cc(-c2ccc(-c3cncc(Cl)c3N3CCC4(CCNC4=O)CC3)cc2)cn1	COLO 205	microarray, item: BBC3		concentration not given, 2 h, gene set PUMA	reference: untreated cells	fold change in expression	2.64
CCc1cnc(N2CCC(c3nc(COc4ccc(-n5cnnn5)cc4)cs3)CC2)nc1	HEK-293T	RNA-seq GSEA, item: Hallmark androgen response		concentration not given	direction not given	normalized enrichment score	1.17

Compound	cell line	test	system	conditions	scale	quantity	result
CCn1cc(-c2cc(Cn3ccoc3=N)cc3c2CCN([C@@H](C)c2cc(OC)ccn2)C3=O)c(C(F)(F)F)n1	RERFGC1B	cell growth		120 h		EC50	2.69 µM
CCCCN1C[C@H](O)[C@@H](O)[C@@H](O)[C@H]1CO	sample A patient fibroblasts	Gb3 level lowering, LC-MS/MS, item: Gb3 d18:1/24:1		216 h		IC50	11.6 µM
Cc1nn(CC(F)(F)F)cc1Nc1ncc(Br)c(NCc2ccc(S(N)(=O)=O)cc2)n1	RAW-ISG	TBK1 phosphorylation, western blot		10 µM, together with: poly(I:C)	reference: DMSO	phospho-TBK1/TBK1 ratio	0.409 and 0.274
CC(=O)c1nn(-c2ccc(Cl)cc2)/c(=N/N=C(\C)c2ccc(NC(=O)c3ccc(C)cc3)cc2)s1	HepG2			2.5 µM		toxicity	97.2%
O=C(C[C@@H](C(F)F)n1ccc(F)n1)N1CCC(O)(Cn2cnc3c(cnn3-c3ccc(F)cc3)c2=O)CC1	CHP-212 parental (wild-type USP7)	PI flow cytometry		1 µM, 24 h		cells in G1 phase	72.2% and 69.3% and 82.8%
COc1cc2ncnc(Nc3ccc(Oc4ccccc4)c(C)c3C)c2cc1OC.Cl	MeWo (NF1)	cell viability, resazurin		0.1 µM, 72 h, together with: trametinib		average fractional effect	7%
O=C(/C=C/C=C/C=C/C1CCCCC1)NC1=C[C@@](O)(/C=C/C=C/C=C/C(=O)NC2=C(O)CCC2=O)[C@@H]2O[C@@H]2C1=O	rerflcai	cell growth, inhibitor, CellTiter-Glo luminescence		78 h	reference: day 0 cell count	GI50	23.3 µM
CC/C(=N\NC(=O)NCc1cccc(O)c1)c1ccc(O)c(C)c1O	SK-OV-3	gene expression, microarray, item: KCNJ16		10 µM, 24 h	reference: DMSO	log ratio	-2.95
CC(C)NCC(O)c1ccc(O)c(O)c1 (stereo not shown)	mouse ventricular cardiomyocytes			dose not given, 0.183 s		sarcomere length	1.66 µm
C=Cc1c2[n-]c(c1C)/C=c1\[n-]/c(c(C)c1C=C)=C\c1[n-]c(c(CCC(=O)O)c1C)/C=c1\[n-]c(c(C)c1CCC(=O)O)=C2.[Sn+4]	SH-SY5Y	RNA-seq, item: INSYN2B mRNA		5 µM, 5 h	reference: untreated cells	fold change	4.57
CCc1ccc(NC(=O)C2CCC(CNS(=O)(=O)c3ccc4c(c3)CC(C)N4C(C)=O)CC2)cc1 (stereo not shown)	LDR	silenced CMV-GFP reporter derepression, qHTS				efficacy	27%
CCn1cc(-c2cc(Cn3ccnc3)cc3c2CCN([C@H](c2cc(OC)ccn2)C2CC2)C3=O)c(C(F)(F)F)n1	KLM1	cell growth, inhibitor		120 h		EC50	> 30 µM
Cn1cc(Nc2nccc(-c3ccc4c(c3)CN(C3COC3)CC[C@H]4NC(=O)c3cn(C(C)(C)C)nn3)n2)cn1	mouse splenic B cells	item: ErbB2-ErbB3 signalling		30 mg/kg, IgD-activated in vivo	reference: vehicle, direction not given	pathway activation z-score	1
O=S(=O)(NNc1nnc(Cl)c2ccccc12)c1ccc(F)cc1	Vero	MTT		500 µg/mL		cytotoxicity	95.2%
Cc1cccc(-c2[nH]c(CNc3ccccc3F)nc2-c2ccc3ncnn3c2)n1	MM1.S	XTT		0.8 µM		viability	64% and 80% and 71%
C=C1C(=O)O[C@@H]2[C@H]3O[C@]3(C)CC/C=C(/C)CC[C@@H]12	LDR	silenced CMV-GFP reporter derepression, qHTS				efficacy	19%
C=CCn1c(=O)c2cnc(Nc3ccc(N4CCN(C)CC4)cc3)nc2n1-c1ccc2c(n1)[C@@](O)(CC)CC2	Kuramochi	flow cytometry		concentration not given, EdU-negative S phase		γH2AX-positive cells	35%
C[C@H](NC(=O)C(=O)Nc1ccccc1C(C)(C)C)C(=O)N[C@@H](CC(=O)O)C(=O)COc1c(F)c(F)cc(F)c1F	mouse thymocytes	inhibitor, flow cytometry		10 µM, together with: FasL		PI-positive cells	103% and 101%
O=C(Cn1c(=O)n(Cc2ccc(F)cc2)c(=O)c2sc3ccccc3c21)Nc1ccc(F)cc1F	LDR	silenced CMV-GFP reporter derepression, qHTS				efficacy	29%
Cn1ncnc1[C@H]1c2n[nH]c(=O)c3cc(F)cc(c23)N[C@@H]1c1ccc(F)cc1	T98G	immunofluorescence		3 nM, together with: temozolomide 100 µM	reference: DMSO	RPA and γH2AX foci	no effect
CC(C)(c1ccc(O)cc1)c1ccc(O)cc1	HepG2 spheroids	Hoechst flow cytometry		0.1 µM, 24 h		G2 phase cells	20.7 ± 4.97%
Cc1nc(N(Cc2ccccc2)c2ccc3c(c2)/C(=C/c2ccccc2)C(=O)N3Cc2ccccc2)c2ccccc2n1 (mixture of isomers)	LLC	PI flow cytometry		2.0 µM		cells in G0/G1 phase	53%
Cc1ccccc1OCCn1cnc2cc([N+](=O)[O-])ccc2c1=O	LDR	silenced CMV-GFP reporter derepression, qHTS				efficacy	23%
COc1cc(/C=C/C(=O)N2CCC=CC2=O)cc(OC)c1OC	MDA-MB-468	quantitative RT-PCR, item: GSR		30 µM, 8 h	reference: untreated cells	mRNA level	60.3 ± 10%

Some of these lines once more:
Compound	cell line	test	system	conditions	scale	quantity	result
CC(=O)Nc1cccc(-n2c(=O)n(C3CC3)c(=O)c3c(Nc4ccc(I)cc4F)n(C)c(=O)c(C)c32)c1	MeWo (NF1)	cell viability, resazurin		6.25 nM, 72 h	reference: DMSO	average fractional effect	30%
CCCCc1nc(Cl)c(CO)n1Cc1ccc(-c2ccccc2-c2nn[nH]n2)cc1	human PBMC	RNA-seq, item: GPR34 mRNA		10 µg/mL, 24 h	reference: untreated control	log2 fold change	-3.54
CC(C)C[C@H](NC(=O)[C@H](Cc1ccccc1)NC(=O)c1cnccn1)B(O)O	HiBiT-BRD4 LgBiT cells			1 µM, 24 h, no PROTAC		decrease in BRD4 level	~50%
O=C1c2ccncc2C(=O)c2c1[nH]c1ccccc21	PAH hPASMC	mitochondrial fission			reference: A549 over PAH hPASMC	minimum effective concentration ratio	5 fold
COc1cccc2c1C(=O)c1c(O)c3c(c(O)c1C2=O)C[C@@](O)(C(=O)CO)C[C@@H]3O[C@H]1C[C@H](N)[C@H](O)[C@H](C)O1	SW480	MTT		72 h	reference: IC50 HaCaT over IC50 SW480	selectivity index	0.4
COc1ccc2c(N(C)c3ccc(/C(C)=N/OCCN)cc3)c3c(Cl)coc3nc2c1	RWPE-1	trypan blue exclusion		0.5 µM		inhibition of cell proliferation	40%
CC[C@H](C)[C@H](NC(=O)[C@H](CCCCN)NC(=O)[C@@H](NC(=O)[C@H](CCCNC(=N)N)NC(=O)[C@@H](NC(=O)[C@@H](CCCNC(=N)N)NC(=O)[C@@H](CCCNC(=N)N)NC(=O)[C@@H](CCCNC(=N)N)NC(=O)[C@@H](CCCNC(=N)N)NC(=O)[C@@H](CCCNC(=N)N)NC(=O)[C@H](N)CCCNC(=N)N)[C@@H](C)O)[C@@H](C)O)C(=O)N[C@@H](CC(=O)O)C(=O)N[C@@H](Cc1c[nH]c2ccccc12)C(=O)NC(C)(C)C(=O)N[C@@H](CCCCN)C(=O)N[C@H](C(=O)N[C@@H](CC(C)C)C(=O)NC(C)(C)C(=O)N[C@@H](CCCCN)C(=O)NCCCCCC(=O)NCCCC[C@H](NC(=O)CCCCCNC(=O)[C@H](CCCCN)NC(=O)C(C)(C)NC(=O)[C@H](CC(C)C)NC(=O)[C@@H](NC(=O)[C@H](CCCCN)NC(=O)C(C)(C)NC(=O)[C@H](Cc1c[nH]c2ccccc12)NC(=O)[C@H](CC(=O)O)NC(=O)[C@@H](NC(=O)[C@H](CCCCN)NC(=O)[C@@H](NC(=O)[C@H](CCCNC(=N)N)NC(=O)[C@@H](NC(=O)[C@@H](CCCNC(=N)N)NC(=O)[C@@H](CCCNC(=N)N)NC(=O)[C@@H](CCCNC(=N)N)NC(=O)[C@@H](CCCNC(=N)N)NC(=O)[C@@H](CCCNC(=N)N)NC(=O)[C@H](N)CCCNC(=N)N)[C@@H](C)O)[C@@H](C)O)[C@@H](C)CC)[C@@H](C)CC)C(N)=O)[C@@H](C)CC	SK-MEL-5	flow cytometry		10 µM, 6 h		apoptotic cells	57%
